Published values gathered from unrelated publications.
Protocols differ between the studies behind these lines. Numbers after ± are the reported error.

Structure (SMILES) = CCCCCc1cn(CCCCCCCCCCCOP(=O)([O-])OCC[N+](C)(C)C)nn1; test = haemolysis; test system = human; setting = 100 µM, 1 h; quantity = haemolysis; value = 0.5%
Structure (SMILES) = CC(C)(O)c1ncc([S@](N)(=O)=NC(=O)Nc2c3c(cc4c2CCC4)CCC3)s1; test system = healthy human, fed; setting = oral, 50 mg twice daily, day 14, tablet formulation, geometric mean; quantity = Cmax; value = 8520 ng/mL
Structure (SMILES) = CC(C)[C@H](NC(=O)[C@@H]1CCCN1C(=O)[C@H](CCCNC(=N)N)NC(=O)[C@H](CS)NC(=O)[C@H](Cc1c[nH]c2ccccc12)NC(=O)[C@H](CCCNC(=N)N)NC(=O)[C@@H](Cc1ccccc1)NC(=O)[C@H](Cc1c[nH]cn1)NC(=O)[C@H](CCC(=O)O)NC(=O)[C@H](CS)NC(=O)[C@H](CS)NC(=O)[C@@H]1CC(=O)N[C@@H](CCCNC(=N)N)C(=O)NCC(=O)N[C@@H](CC(=O)O)C(=O)N[C@H](Cc2ccc(O)cc2)C(=O)N1)C(N)=O [technetium-99m labelled]; test system = C57 mouse, female, B16/F1 melanoma; setting = intravenous, 0.037 MBq, 2 h; how to read = relative to: tumour over blood; quantity = tumour to tissue ratio; value = 21.8
Structure (SMILES) = CC(C)[C@H](NC(=O)[C@@H]1CCCN1C(=O)[C@H](CCCNC(=N)N)NC(=O)[C@H](CS)NC(=O)[C@H](Cc1c[nH]c2ccccc12)NC(=O)[C@H](CCCNC(=N)N)NC(=O)[C@@H](Cc1ccccc1)NC(=O)[C@H](Cc1c[nH]cn1)NC(=O)[C@H](CCC(=O)O)NC(=O)[C@H](CS)NC(=O)[C@H](CS)NC(=O)COCCOCCNC(=O)[C@@H]1CC(=O)N[C@@H](CCCNC(=N)N)C(=O)NCC(=O)N[C@@H](CC(=O)O)C(=O)N[C@H](Cc2ccc(O)cc2)C(=O)N1)C(N)=O [technetium-99m labelled]; test system = nude mouse, M21 melanoma xenograft, lung; setting = intravenous, 2 h; quantity = tissue uptake; value = 0.79 ± 0.53 %ID/g
Structure (SMILES) = N=C(N)NCCC[C@@H]1NC(=O)[C@H](Cc2c[nH]c3ccccc23)NC(=O)[C@@H](CC2CCCCC2)NC(=O)[C@@H]2CCCN2C(=O)[C@@H](NC(=O)CCc2ccccc2)CCCNC1=O; test = two-compartment model; test system = C57BL/6J mice, plasma; setting = intraperitoneal, 1 mg/kg; quantity = central volume (V1/F); value = < 0.01 mL
Structure (SMILES) = O=C(CCc1ccc(CNC(C(=O)OC2CCCC2)C2CCCCC2)cn1)NO (stereo not drawn); test system = human, plasma; setting = oral, 40 mg once daily, day 7, geometric mean; quantity = AUC(0-t); value = 229 ng·h/mL
Structure (SMILES) = CC1=CC(C)(C)N=C2C=CC(=O)C=C12; test = LC-MS/MS; test system = cattle, Holstein, liver; setting = oral, 50 mg/kg complete feed of ethoxyquin, 42 days, highest value, after glucuronidase; quantity = residue concentration; value = 20 ng/g
Structure (SMILES) = NCCC(=O)N1Cc2ccccc2-c2c(nnn2-c2nc(N)c3ncn(C4OC(CO)C(O)C4O)c3n2)-c2ccccc21 (mixture of isomers); test = fluorescence lifetime; test system = methanol; quantity = fractional contribution τ3; value = 0.4%
Structure (SMILES) = C=CC(=O)Nc1cc(Nc2nccc(-c3cn(C4CC4)c4ccccc34)n2)c(OC)cc1NC; test = LC-RAM/HRMS; test system = human male, plasma; setting = oral, 110 mg, 6 h; how to read = relative to: total radioactivity; quantity = share of radioactivity; value = 2.04%
Structure (SMILES) = CC[C@H](C)[C@@H]1NC(=O)[C@H](Cc2ccccc2)NC(=O)[C@@H](NC(=O)[C@H](CCCNC(=N)N)NC(=O)[C@H](Cc2ccccc2)NC(=O)[C@H](Cc2ccccc2)NC(=O)[C@H](CCCCN)NC(=O)[C@H](CO)NC(=O)[C@H](CC(C)C)NC(=O)[C@H](CCCNC(=N)N)NC(=O)[C@H](CCSC)NC(=O)[C@H](C)N)CNC(=O)NCCCC[C@@H](C(=O)N[C@@H](CCCNC(=N)N)C(=O)N[C@@H](CCCCN)C(=O)N[C@@H](CCCCN)C(=O)O)NC(=O)[C@H](CC(C)C)NC1=O; test = circular dichroism; test system = 2.5 mM DPC; quantity = melting temperature; value = 65.9 °C
Structure (SMILES) = CC1=C(/C=C/C(=O)N2CCN(C(N)=O)CC2)C(C)(C)CCC1; test system = female mouse, plasma; setting = oral, 20 mg/kg, single dose; quantity = half-life; value = 33.4 min
Structure (SMILES) = O=C(c1cccc(N=Nc2ccc(OC3CC(N4CCCCC4)C3)cc2)c1)N1CCCC1 (stereo not drawn); test system = Tris-HCl buffer, 1% DMSO-d6; setting = 25 µM, pH 7.4, illumination 434 ± 9 nm; quantity = photoisomerization half-life; value = 0.133 ± 0.01 min
Structure (SMILES) = CC(C)c1cnc(-c2cc(Cl)ccc2F)cc1Nc1ccncc1C(=O)NC(CO)CO; test = item: any event, worst grade; test system = human patients; setting = oral, dose not given, grade 4; quantity = patients with related SAE; value = 0%
Structure (SMILES) = Cc1[nH]c(/C=C2\C(=O)Nc3ccc(F)cc32)c(C)c1NC(=O)CCN1CCN(C)CC1; test system = dog plasma; setting = 1.00 ng/mL nominal, 30 d, -80 °C, frozen storage; quantity = measured concentration; value = 0.99 ng/mL
Structure (SMILES) = CCc1cc(Nc2nc(-c3ccc(-n4cnc(C)c4)c(F)c3)cs2)c(C)cc1C; test system = human, plasma; setting = oral, 400 mg, day 1, multiple dose, geometric mean; quantity = apparent clearance (CL/F); value = 30400 mL/h
Structure (SMILES) = COc1cc2c(cc1OC)CN(CCCCn1ccc3cc(OCC[18F])ccc31)C2; test system = male CD-1 mouse, brain; setting = intravenous, 1 h; quantity = tracer uptake; value = 1.69 %ID/g
Structure (SMILES) = COc1cc(-c2nc3ccccc3s2)cc(CN2CCN(CC(=O)O)CCN(CC(=O)O)CC2)c1O; test = UV-Vis pH titration; setting = 25 °C, ionic strength 0.1 M NaCl; quantity = pKa3; value = 7.92
Structure (SMILES) = COCCOCCOCCOCCC(=O)NCc1cc(CNC(=O)CCOCCOCCOCCOC)cc(-c2cc3cc4nc(c(-c5ccc(CCC(=O)O)cc5)c5[nH]c(cc6nc(c(OC)c2[nH]3)CC6(C)C)cc5-c2cc(CNC(=O)CCOCCOCCOCCOC)cc(CNC(=O)CCOCCOCCOCCOC)c2)CC4(C)C)c1; test system = DMF; setting = room temperature; quantity = Qy absorption maximum; value = 726 nm
Structure (SMILES) = C#CCOc1ccc(/C=C2\SC(=O)N(CC(=O)NCc3ccccc3)C2=O)cc1; test = inverse Kirkwood-Buff integrals; test system = binary solvent mixture; setting = concentration not given, 298.15 K, mole fraction x1 0.50; quantity = correlation volume; value = 4010 cm³/mol
Structure (SMILES) = CCCC(CCC(=O)O)NC(=O)c1ccc(O)c(OC)c1 (stereo not drawn); test = LC-MS; test system = Sprague-Dawley rats, pooled sexes, plasma; setting = oral, 200 mg/kg of parent drug, 1 h; how to read = relative to: total peak area; quantity = metabolite peak area; value = 0.26%
Structure (SMILES) = Cn1c(=O)oc2ccc(-c3ccc(CC(C#N)NC(=O)C4CNCCCO4)c(F)c3)cc21 (stereo not drawn); test = item: white blood cells in urine; test system = human volunteers; setting = 60 mg single dose, fasted; quantity = share of subjects with TEAE; value = 0%
Structure (SMILES) = C[N+](C)(C)CC(CC(=O)[O-])OC(=O)CCC(=O)Nc1ccn([C@@H]2O[C@H](CO)[C@@H](O)C2(F)F)c(=O)n1 (stereo partly drawn); test system = THU-treated rat plasma; setting = 3200.00 ng/mL, 2 months, -80 °C, frozen storage, high QC; quantity = measured concentration; value = 3090 ± 124 ng/mL
Structure (SMILES) = O=C([O-])CN1CCN(CC(=O)[O-])CCN(CC(=O)NCC2CCC(C(=O)NC(Cc3ccc4ccccc4c3)C(=O)NCCCCC(NC(=O)NC(CCC(=O)O)C(=O)O)C(=O)O)CC2)CCN(CC(=O)[O-])CC1.[44Sc+3] (stereo not drawn); test = transmetallation stability; setting = 2 h, 37 °C, with: Fe3+ 10 mM; quantity = intact complex; value = 98 ± 0.8%
Structure (SMILES) = COc1cc(OC)cc(C2=C3C(C)=C(I)C(C)=[N+]3[B-](F)(F)n3c(C)c(I)c(C)c32)c1; test system = DMSO; quantity = Stokes shift; value = 439 cm⁻¹
Structure (SMILES) = O=[11C](OC(C(F)(F)F)C(F)(F)F)N1CCC(CNS(=O)(=O)c2ccc(Cl)cc2)CC1; test = PET; test system = rhesus monkey; setting = 90 min; quantity = brain uptake; value = ~1 SUV
Structure (SMILES) = O=c1nc(NO)ccn1[C@@H]1O[C@H](CO)[C@@H](O)[C@H]1O; test = RT-PCR, item: CYP2B1; test system = rat, arthritis model, liver; setting = oral, 80 mg/kg twice daily, 5 days; how to read = relative to: untreated arthritic rats; quantity = mRNA level; value = 0.4 fold
Structure (SMILES) = C=CC(=O)Nc1cc(Nc2nccc(-c3cn(C4CC4)c4ccccc34)n2)c(OC)cc1N(C)CCNC; test = LC-RAM/HRMS; test system = human male, plasma; setting = oral, 110 mg, 24 h; how to read = relative to: total radioactivity; quantity = share of radioactivity; value = 16.1%
Structure (SMILES) = CCCC[C@H](NC(=O)[C@H](CC(C)C)N(C)C(=O)CNC(=O)[C@@H](NC(=O)[C@H](Cc1ccccc1)NC(=O)[C@H](CCCCN)NC(=O)[C@@H](N)CC(=O)O)C(C)C)C(N)=O; test system = anesthetized Gottingen minipig; setting = subcutaneous, 10 µg/kg; how to read = relative to: baseline; quantity = mean arterial pressure; value = -4.6 ± 2.67%
Structure (SMILES) = CCCCN1C(=O)c2cccc3c(NCCN4CCOCC4)ccc(c23)C1=O; test system = water; setting = pH 6; how to read = relative to: fluorescein/0.1 N NaOH; quantity = fluorescence quantum yield; value = 0.22
Structure (SMILES) = CCCCCCCCCCCCCCCC(=O)N[C@@H](CCC(=O)NCCCC[C@H](NC(=O)[C@H](C)NC(=O)[C@H](C)NC(=O)[C@H](CCC(N)=O)NC(=O)CNC(=O)[C@H](CCC(=O)O)NC(=O)[C@H](CC(C)C)NC(=O)[C@H](Cc1ccc(O)cc1)NC(=O)[C@H](CO)NC(=O)[C@H](CO)NC(=O)[C@@H](NC(=O)[C@H](CC(=O)O)NC(=O)[C@H](CO)NC(=O)[C@@H](NC(=O)[C@H](Cc1ccccc1)NC(=O)[C@@H](NC(=O)CNC(=O)[C@H](CCC(=O)O)NC(=O)[C@H](C)NC(=O)[C@@H](N)Cc1cnc[nH]1)[C@@H](C)O)[C@@H](C)O)C(C)C)C(=O)N[C@@H](CCC(=O)O)C(=O)N[C@@H](Cc1ccccc1)C(=O)N[C@H](C(=O)N[C@@H](C)C(=O)N[C@@H](Cc1c[nH]c2ccccc12)C(=O)N[C@@H](CC(C)C)C(=O)N[C@H](C(=O)N[C@@H](CCCNC(=N)N)C(=O)NCC(=O)N[C@@H](CCCNC(=N)N)C(=O)NCC(=O)O)C(C)C)[C@@H](C)CC)C(=O)O; test system = simulated intestinal fluid with pancreatin; setting = 2 h, pH 6; quantity = metabolised fraction; value = 95.5%

A few entries again:
Structure (SMILES) = Cn1c(=O)oc2ccc(-c3ccc(CC(C#N)NC(=O)C4CNCCCO4)c(F)c3)cc21 (stereo not drawn); test = item: white blood cells in urine; test system = human volunteers; setting = 60 mg single dose, fasted; quantity = share of subjects with TEAE; value = 0%
Structure (SMILES) = CC[C@H](C)[C@@H]1NC(=O)[C@H](Cc2ccccc2)NC(=O)[C@@H](NC(=O)[C@H](CCCNC(=N)N)NC(=O)[C@H](Cc2ccccc2)NC(=O)[C@H](Cc2ccccc2)NC(=O)[C@H](CCCCN)NC(=O)[C@H](CO)NC(=O)[C@H](CC(C)C)NC(=O)[C@H](CCCNC(=N)N)NC(=O)[C@H](CCSC)NC(=O)[C@H](C)N)CNC(=O)NCCCC[C@@H](C(=O)N[C@@H](CCCNC(=N)N)C(=O)N[C@@H](CCCCN)C(=O)N[C@@H](CCCCN)C(=O)O)NC(=O)[C@H](CC(C)C)NC1=O; test = circular dichroism; test system = 2.5 mM DPC; quantity = melting temperature; value = 65.9 °C
Structure (SMILES) = O=C([O-])CN1CCN(CC(=O)[O-])CCN(CC(=O)NCC2CCC(C(=O)NC(Cc3ccc4ccccc4c3)C(=O)NCCCCC(NC(=O)NC(CCC(=O)O)C(=O)O)C(=O)O)CC2)CCN(CC(=O)[O-])CC1.[44Sc+3] (stereo not drawn); test = transmetallation stability; setting = 2 h, 37 °C, with: Fe3+ 10 mM; quantity = intact complex; value = 98 ± 0.8%
